Results pooled from the literature.
Numbered parts are unrelated; each lists some results of a single study.

Series 1
Target: Histone acetyltransferase KAT6A, winged helix 1, GST fusion (KAT6A, Homo sapiens, UniProt Q92794, residues 1-85)
Technique: protein binding microarray
Molecule type: double-stranded DNA, one strand shown
Matrix: in vitro
Concentration: not given
Notes: 8-mer, flanks averaged, mean of 2 arrays, mostly near background
Reference: not given
Reading: higher = stronger binding
Target sequence (chain): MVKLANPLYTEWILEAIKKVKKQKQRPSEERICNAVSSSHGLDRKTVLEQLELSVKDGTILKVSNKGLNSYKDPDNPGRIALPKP
Strand	E-score
TGGCGAAA	-0.0522
CGACATGA	0.0151
GTAATCAA	-0.0407
ACTGGATC	-0.0585
AGGGCTTG	-0.0913
TCGATAGA	-0.123
AGCAGTAA	-0.166
CGCTTTGC	0.195
AGTAAGGG	0.04
GCGGGGTA	0.298
GGGAGGAA	0.0521
GTTCCAGA	-0.231
ACTCGATC	0.0397
TCTCCTCA	-0.0609
AGGAGGGA	-0.235
AGCAAGCG	0.172
AAATGGTG	-0.132
ACATGCCA	-0.12
GCGAGGGA	0.0827
TCCCGAAA	-0.0714
GATATCCC	0.0773
AACTAATG	-0.178
ACATAGAA	-0.212
GCAAAAAC	0.0035
CAGATTCA	-0.32

Series 2
Target: Sal-like protein 4, full length isoform B (SALL4, Homo sapiens, UniProt Q9UJQ4-2, residues 1-616)
Technique: universal PBM
Molecule type: double-stranded DNA, one strand shown
Matrix: in vitro
Concentration: not given
Notes: 8-mer, flanks averaged, mean of replicates
Reading: higher = stronger binding
Strand	E-score
CATGGCGC	-0.125
GACATCTA	0.0617
ATACGCGG	-0.064
CATGAGCC	-0.132
GCGTCGAC	-0.122
AAAGTTGG	0.114
AGGGAGTC	-0.136
AGTGAACA	0.0659
AATCGTTG	0.0757
CACGTCAA	-0.059
TCTCCACA	0.1
CGGGGTAA	-0.0123
CCACAGCG	-0.187
AGTCACAA	0.0408
CGCCCTAC	-0.0115
CGCTTCGC	-0.155
ATCGATAA	0.229
ATTTGCAA	0.224
CCTCCATA	0.0796
ATGGCGGC	-0.17
AATACGAG	0.196
CGTCTAAA	-0.0187
AGATTGTC	-0.048

Series 3
Target: Ras GTPase-activating protein-binding protein 1, RRM domain (G3BP1, Homo sapiens, UniProt Q13283)
UniProt Q13283, sequence (whole entry, looked up): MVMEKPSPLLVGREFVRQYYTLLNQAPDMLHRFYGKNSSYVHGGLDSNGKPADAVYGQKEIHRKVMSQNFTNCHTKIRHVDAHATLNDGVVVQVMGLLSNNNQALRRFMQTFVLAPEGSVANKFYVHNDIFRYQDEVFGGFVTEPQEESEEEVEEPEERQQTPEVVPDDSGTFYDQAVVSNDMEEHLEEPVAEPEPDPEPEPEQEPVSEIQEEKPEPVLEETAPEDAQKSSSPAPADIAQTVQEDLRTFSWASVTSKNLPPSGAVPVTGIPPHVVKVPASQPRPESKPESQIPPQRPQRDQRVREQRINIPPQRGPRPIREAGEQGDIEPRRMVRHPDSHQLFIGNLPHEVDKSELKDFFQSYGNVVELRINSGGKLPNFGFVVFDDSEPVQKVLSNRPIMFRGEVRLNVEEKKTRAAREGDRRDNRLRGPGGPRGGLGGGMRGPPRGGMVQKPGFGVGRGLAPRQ
Technique: RNA Bind-n-Seq
Molecule type: RNA
Matrix: in vitro
Concentration: 1 µM
Notes: whole 134-nt RNA, ends assumed
With: 150 mM KCl
Reference: input library
Reading: higher = stronger binding
Constant ends, left off below: GGGAGUUCUACAGUCCGACGAUC … UGGAAUUCUCGGGUGUCAAGG
Strand	log2 enrichment
GUCCUGUGCUACACAUCGUAUGUACCGAAUCGGUUUUUGGGGUUUUUGGUUUUUGGGGAAAGUAUUAUGUUACGCCGUUCGGAUCUGCAC	-0.237
UGUGCUACACAUCGUAUGUACCGAAUCGGGGAAAAAAAGGGGAAAAAAAGGGGAAAAAAAGGGAAAGUAUUAUGUUACGCCGUUCGGAUC	0.219
CUCAAGUCCUGUGCUACACAUCGUAUGUACCGAAUCGGGGUUGGGUUGGUUGGGAAAGUAUUAUGUUACGCCGUUCGGAUCUGCACUUCC	-0.0274
CACAGUCAACACGCACCCACACAGACACAGAGGGAAGGGGUUGGGAUGGGGACAGGGUGCACAGCAGGGCGGGGUAGGACCCCAGCCCCU	-0.114
CUCAAGUCCUGUGCUACACAUCGUAUGUACCGAAUCGGAAGGGGAAGGGAAGGGAAAGUAUUAUGUUACGCCGUUCGGAUCUGCACUUCC	0.641
GUCCUGUGCUACACAUCGUAUGUACCGAAUCGGGGCCCCCGGGCCCCCGGCCCCCGGGGAAAGUAUUAUGUUACGCCGUUCGGAUCUGCA	-0.616
CAAGUCCUGUGCUACACAUCGUAUGUACCGAAUCGGGUUUUGGGUUUUGGUUUUGGAAAGUAUUAUGUUACGCCGUUCGGAUCUGCACUU	-0.282
AGUCCUGUGCUACACAUCGUAUGUACCGAAUCGGGUUUGGGAAAAAAAGGGAAAGGGAAAGUAUUAUGUUACGCCGUUCGGAUCUGCACU	0.494
UGAACAGCUCUGCGCUUUUUGUUACUGUGGGGAAAAAAGUUCCUUAGGACAAGGAGACUUAAAACAAUUCAGAAUAACGCCUGGAUUUAU	-0.279
CAAGUCCUGUGCUACACAUCGUAUGUACCGAAUCAAAUUUAAAUUUAAACCCAAAAAAGUAUUAUGUUACGCCGUUCGGAUCUGCACUUC	-0.306

Series 4
Target: RING finger protein unkempt homolog, zinc fingers 1-6, GST-SBP tag (UNK, Homo sapiens, UniProt Q9C0B0, residues 30-357)
UniProt Q9C0B0, sequence (30-357, looked up): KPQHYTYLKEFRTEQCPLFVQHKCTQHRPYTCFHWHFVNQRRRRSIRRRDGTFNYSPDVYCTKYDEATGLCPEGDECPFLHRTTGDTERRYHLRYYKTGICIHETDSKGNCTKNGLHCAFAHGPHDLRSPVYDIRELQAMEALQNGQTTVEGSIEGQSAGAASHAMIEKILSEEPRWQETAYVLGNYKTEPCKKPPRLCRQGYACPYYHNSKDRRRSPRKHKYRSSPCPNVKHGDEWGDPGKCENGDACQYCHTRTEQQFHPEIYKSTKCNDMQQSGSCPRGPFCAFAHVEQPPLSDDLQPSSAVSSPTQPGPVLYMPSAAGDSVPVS
Technique: RNA Bind-n-Seq
Molecule type: RNA
Matrix: in vitro
Concentration: not given
Notes: RNA with constant flanks, human and mouse sites, ends assumed
Reference: input RNA pool
Reading: higher = stronger binding
Constant ends, left off below: GGGAGUUCUACAGUCCGACGAUC … CAACAGAGGAUUGAGCAUCA
Strand	bound/input enrichment [ratio]
UCAGAUAAUUCAAGAUUUCCACUUGCAGUUGUAGAAGAACCAAUUACAGUGGAAGUGGCUUUUAGAAACCCUUUGAAAGUUCUACUUUUGUUGACUGAUUUGUCAUUGCUUUGGAAGUUU	0.224
GGUAUCAGAUCUCAAAACCAAGGCUCUCUUGCCCAGGGGAAAAGCUUUUUAAUGAGCAAAUUUUCAUCUCUAAAUCAAAAAGUAAAGCAGACCAAAUCCAAUGUGAACAUCGGCAACCUA	0.158
GCUAAGCAGAGGAUCCAGGAAAGAAUUGCCAGAGAAGGAAUAAAAAAUAAGAUUUUAUAUGAAAGCACCCACCUUGAUCCUGAAAGAAAAAUGAAGACCAACAACAGCAGCUAAGCAACU	0.467
GUCCUCACCGCCUGUUUCGGGUCCUUUGCUCACGGCGGCAAUGACGUGAGUAAUGCCAUCGGUCCCCUGGUAGCCUUGUGGCUGAUUUACAAACAAGGCGGGGUAACGCAAGAAGCAGCU	0.171
GAGUGCCUGAGCAACAUCCGCGAGUUCCUGCGCGCCUGCGGGGCGUCCCUGCGCCUAGAGACUUUUGAUGCAAAUGAUUUGUAUCAGGGGCAGAACUUUAACAAGGUCCUCAGCUCCUUG	0.123
UCAUAUGUGGACAUCAAGACUGGCAAGGUUACUUUGGAGUACAGACCUGUUAUCGACAAGACCUUGAAUGAGGCUGACUGUGCCACCGUACCUCCUGCUAUCCGCUCCUACUGAUGAAAC	0.0718
UCUGGUUGAUUUAGCUGGUAGUGAAAAGGUUAGUAAAACUGGAGCUGAAGGUGCUGUGCUGGAUGAAGCUAAAAACAUCAACAAGUCACUUUCUGCUCUUGGAAAUGUUAUUUCUGCUUU	0.308
CAAGCUGAACAGCUUGCUGCUGAGACUGAGGGCAUCUCAGAGCUUCCCCAUGUGGAACGGAACUUACAGGAGAUCCAGCAGGCGGGAGAGCGCCUGCGUUCCCGUACCCUAACACGCACG	0.112
UGUUUAUCCUGGCCUGCUCAGGUUUCAUUCUUACAGAACCCAGGACUCCUUGCCCAGGAAUAGUACCACCCACAAUGAGCUGGGUCCUUCCUGCCAAUCACUUAUUAAGAACAUGCCUUA	0.169
CACCCUACUCUGGGUGCCAGUGUGCUUCAUAUCACUGAAAACGGGCCAACUGAAGUGGACUAUAGUCCCUCUGAUAUCCAGGACUCUAGUUUGUCGCAUAAGAUCCCGCCAACGGAAGAG	0.177
CAAACUUAUCAAGAAAUAGUUACCAGUCAUUCCGCAGCAUCCUGAGAACAGUUAAAAACACAUUUCAUAGUAAUGCCCUUCCAUUUUGGUAAUACUAAGCUGAACAUUUAAAAAUCUUGG	0.468

A few entries again (series 1):
Strand	E-score
GGGAGGAA	0.0521
GTTCCAGA	-0.231
ACTCGATC	0.0397
TCTCCTCA	-0.0609
AGGAGGGA	-0.235
AGCAAGCG	0.172
AAATGGTG	-0.132
ACATGCCA	-0.12
GCGAGGGA	0.0827
TCCCGAAA	-0.0714
